Measurements from different studies.
Every numbered part comes from another study and shows a few of its results, in no order.

Set 1 — method: aptamer microarray, sandwich; form: DNA with 2'F-ANA; sample: in vitro; concentration: 200 nM; with: Cy3 exosite-II aptamer, 400 nM; direction: higher = stronger binding
Target: Prothrombin, mature alpha-thrombin (F2, Homo sapiens, UniProt P00734)
Setting: whole 15-mer aptamer, many near background
For `GGTTGGTGTGGTTGG (2'F-ANA at 1 2 4 5 10 15)`, “mean fluorescence intensity” read 48.9 a.u.
Under “mean fluorescence intensity”, `GGTTGGTGTGGTTGG (2'F-ANA at 3 4 7 8 9 11 13 14)` is recorded as 296 a.u.
`GGTTGGTGTGGTTGG (2'F-ANA at 1 4 5 6 9 10 11 13 15)`: “mean fluorescence intensity” 48.9 a.u.
`GGTTGGTGTGGTTGG (2'F-ANA at 2 3 4 13 14 15)`: “mean fluorescence intensity” 267 a.u.

Set 2 — method: protein-binding microarray; form: double-stranded DNA, one strand shown; sample: in vitro; concentration: 0.8 µM; setting: whole 60-bp probe, no competitor; direction: higher = stronger binding
Target: Centromere-binding protein 1, full length, N-terminal tag (CBF1, Saccharomyces cerevisiae, UniProt P17106, residues 1-351)
Sequence of UniProt P17106 (whole entry, looked up): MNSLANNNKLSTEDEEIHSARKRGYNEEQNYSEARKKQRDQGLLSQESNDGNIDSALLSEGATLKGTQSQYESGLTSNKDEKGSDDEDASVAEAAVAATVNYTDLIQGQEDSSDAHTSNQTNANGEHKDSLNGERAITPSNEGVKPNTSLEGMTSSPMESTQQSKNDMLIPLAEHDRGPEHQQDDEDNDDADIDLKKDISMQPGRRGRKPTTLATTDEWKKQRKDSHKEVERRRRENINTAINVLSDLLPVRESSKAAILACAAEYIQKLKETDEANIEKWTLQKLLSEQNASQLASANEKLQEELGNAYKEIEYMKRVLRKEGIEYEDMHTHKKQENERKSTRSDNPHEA
`CTAGTACAAAATGATCACGCAACTTTTGACAATTTCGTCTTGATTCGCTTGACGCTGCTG` has a fluorescence intensity of 862 a.u.
With `GAATGGGGACGTCGTTCACGTGCAAAAGTCGCCTAGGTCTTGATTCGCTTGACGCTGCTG` the fluorescence intensity was 5560 a.u.
With `CTATTTTTTAAATCTCACGTTATTTTTCATTTATTCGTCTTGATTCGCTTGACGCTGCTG` the fluorescence intensity was 655 a.u.
For `CCTAACTACTATAGTGATGTGGCATAGCTTCGTACAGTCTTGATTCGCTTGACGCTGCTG`, the fluorescence intensity was 537 a.u.
For `GAATGATAATGTGAACACGTCATCATAGATGGTTAGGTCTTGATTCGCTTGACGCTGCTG`, the fluorescence intensity was 570 a.u.

Set 3 — method: universal PBM; form: double-stranded DNA, one strand shown; sample: in vitro; concentration: not given; direction: higher = stronger binding
Target: Sal-like protein 4, full length isoform B (SALL4, Homo sapiens, UniProt Q9UJQ4-2, residues 1-616)
Setting: 8-mer, flanks averaged, mean of replicates
With `CTACACAA` the E-score was 0.172.
`AAGGGTCC` gave an E-score of -0.297.
`CGACCCAG` gave an E-score of -0.232.
The E-score of `CCTGGGAA` is reported as -0.217.
With `CAAGTGGA` the E-score was 0.0552.
`CGCGCGCA` has an E-score of -0.302.
`CAGGTATA` gave an E-score of 0.0585.

Further values, each from its own experiment
`PhoQ, residues 284 288 289 292 302 303 AEGLLW` gave a fold induction of 1.9 (PhoP, residues 12 14 15 18 19 AWHSL (Escherichia coli, UniProt P23836); Sort-seq, item: YFP reporter; E. coli; PhoQ-PhoP variant library, with: 10 µM Mg2+; relative to: high Mg2+ state, higher = stronger signaling).

Some of these lines once more (set 1):
Under “mean fluorescence intensity”, `GGTTGGTGTGGTTGG (2'F-ANA at 3 4 7 8 9 11 13 14)` is recorded as 296 a.u.
`GGTTGGTGTGGTTGG (2'F-ANA at 1 4 5 6 9 10 11 13 15)`: “mean fluorescence intensity” 48.9 a.u.
`GGTTGGTGTGGTTGG (2'F-ANA at 2 3 4 13 14 15)`: “mean fluorescence intensity” 267 a.u.
